Assay results from different studies.
Protocols differ between the studies behind these lines. Several values in a cell are separate wells, animals, samples, runs or records.
Target: Adenosine receptor A2a (ADORA2A, Homo sapiens, UniProt P29274)

| Structure (SMILES) | assay | system | conditions | scale | measurement | result |
| --- | --- | --- | --- | --- | --- | --- |
| C[C@H](NCc1ccc(-c2ccc(C(F)(F)F)cc2)cc1)C(N)=O | radioligand binding |  | 1 µM, together with: 0.05 µM [3H]CGS-21680 |  | inhibition | -2% |
| CN[C@@H]1[C@H](O)[C@H](NC)[C@H]2O[C@]3(O)[C@H](O[C@@H]2[C@H]1O)O[C@H](C)C[C@H]3NC(=O)Cc1ccc(Cl)cn1 | cell-free assay |  | 10 µM |  | inhibition | 2% |
| CS(C)(=O)=Nc1ccc(-c2ccc(-c3nc4cc(O[C@@H]5CO[C@H]6[C@@H]5OC[C@H]6O)[nH]c4cc3F)cc2)cc1 | calcium signal, antagonist |  | 10 µM |  | inhibition | -15% |
| O=C(O)c1ccc(-c2nc(-c3ccccc3Cl)c3sccn23)cc1 | radioligand binding |  | 10 µM, together with: NECA | baseline: control | specific binding | 97% and 105% |
| CCN(CC)CCOc1ccc(-c2nnn(Cc3ccc(OC)cc3)c2N)cc1 | radioligand binding | HEK293 | 10 µM, safety profiling |  | inhibition | -8.98% |
| Cc1ccc2c(n1)c(-c1cccc(S(C)(=O)=O)c1)c(C)n2C/C(F)=C/CN | ligand displacement, radioligand |  | 10 µM |  | inhibition | 1% |
| COc1ccc(F)cc1S(=O)(=O)Nc1cnc2c(c1)C(=O)NCCO2 | ligand displacement, radioligand |  | 10 µM |  | inhibition | -8% |
| Cc1cc(Nc2nc(C[C@@]3(C(=O)O)CCN(Cc4cccc(Cl)c4F)[C@H](C)C3)cc(C)c2F)[nH]n1 | agonist |  | 10 µM |  | activation | -0.03% |
| N[C@H](C(=O)N1CCCC1)C1CCN(c2nccc3c(-c4ncc(Cl)cc4Cl)cccc23)CC1 | agonist, cell-based functional |  | 10 µM |  | response | 2% |
| CC(C)[C@@H](Nc1nc(Cl)nc2c1ncn2[C@H]1[C@H](O)[C@H](O)[C@]2(CF)C[C@H]12)C1CC1 | ligand displacement, radioligand |  | 10 µM |  | inhibition | 73% |
| CCc1nnc(-c2c(OC)cc(-c3cnc4cc(-c5cnn(C)c5)ccn34)cc2OC)o1 | agonist radioligand, radioligand binding |  | 10 µM, SafetyScreen44 A2A replicate 2 | lower = stronger displacement | remaining binding | 91% |
| C/C(=N\OCCCN1CCCCC1)c1ccc(C(F)(F)F)cc1 | agonist, cAMP |  | 10 µM |  | activation | 2.14% |
| Cc1cc(-c2ccc3ccccc3c2)nnc1NCCN1CCN(C)CC1 | antagonist |  | concentration not given |  | antagonist activity | negative |
| C[C@@H]1COCCN1c1nc(NCc2cccnc2C(F)(F)F)c2cccnc2n1 | binding |  | CEREP panel |  | IC50 | > 100 µM |
